Results from different studies.
Each numbered part is a random draw from the data of one study; scales do not carry over between parts. Changes are numbered by the printed parent chain.

Set 1
Target: Interferon regulatory factor 3, full length, phosphomimetic (IRF3, Homo sapiens, UniProt Q14653, residues 1-427, S386D/S396D/S398D/S402D/T404D/S405D)
Technique: protein-binding microarray
Molecule type: double-stranded DNA, one strand shown
Sample: in vitro
Concentration: 2540 nM top
Setting: 60-bp whole probe
Added: salmon DNA 0.4 mg/ml
Relative to: random background probes
Direction: higher = stronger binding
Quantity: fitted relative affinity
Shared flanks, not repeated: GCCTAGCAC … GTCTTGATTCGCTTGACGCTGCTG
Target sequence (chain): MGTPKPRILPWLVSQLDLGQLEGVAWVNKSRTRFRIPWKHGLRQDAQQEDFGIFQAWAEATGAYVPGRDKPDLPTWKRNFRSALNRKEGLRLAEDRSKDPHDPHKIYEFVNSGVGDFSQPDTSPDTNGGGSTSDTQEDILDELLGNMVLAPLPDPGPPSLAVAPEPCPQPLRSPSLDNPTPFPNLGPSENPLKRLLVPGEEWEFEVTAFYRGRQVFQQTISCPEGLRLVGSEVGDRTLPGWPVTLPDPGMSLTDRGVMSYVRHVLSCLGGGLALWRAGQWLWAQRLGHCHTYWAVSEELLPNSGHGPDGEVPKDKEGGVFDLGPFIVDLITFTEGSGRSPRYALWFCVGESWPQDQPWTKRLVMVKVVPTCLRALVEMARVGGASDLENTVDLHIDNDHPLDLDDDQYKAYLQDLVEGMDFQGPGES
GACGGACTGGACACTGGTGACGTGCTA: -0.502 z-score
GACGGTCTCCTGATCCTGACGTGCTAG: 0.814 z-score
CACGGTTTCCTTTTCCTGACGTGCTAG: 10.6 z-score
AACGGACTGCTTTTCCTGACGTGCTAG: 0.091 z-score
TTACGTATCGGACTGGGTTAGTGCTAG: 1.43 z-score
CTCTACTTGTGTCTAGAGATGTGCTAG: -0.0418 z-score
GACTGTTTCCTTTTCCTGACGTGCTAG: 10.3 z-score
GACGGCCTGGGGTATCGGGACGTGCTA: -0.901 z-score
GACGATTTCGGGTATCGAAACGTGCTA: 2.26 z-score
GACGATTTCAGTCTCGATACGTGCTAG: 2.76 z-score
TTAGGACTGGGTACCGGTTAGTGCTAG: -0.0309 z-score
TCACCTTTATATACCTGACTGTGCTAG: 1.4 z-score
TTAGGACTGGGGCTCGGTTAGTGCTAG: -1.08 z-score
TCATTTGTCACTCTCAGACTGTGCTAG: 1.45 z-score
GATATTATATCTGTGTTATTGTGCTAG: 0.471 z-score
GACGGACTGGTACTGGGGACGTGCTAG: -0.498 z-score
TTAGGTATCCTTCACCTTTAGTGCTAG: 1.8 z-score
CTCTGGGGAGATCAGCGCATGTGCTAG: -1.08 z-score
TCACCTCTAGGTTCTCTGACTGTGCTA: -0.112 z-score

Set 2
Target: TAR DNA-binding protein 43, full length, His tag (TARDBP, Homo sapiens, UniProt Q13148, residues 1-414)
Technique: RNA Bind-n-Seq
Molecule type: RNA
Sample: in vitro
Concentration: 20 nM
Setting: 6-mer, flanks averaged, single round
Added: 150 mM LiCl
Relative to: input library
Direction: higher = stronger binding
Quantity: 6-mer enrichment (R)
GCUUCC: 0.896
AAACGG: 0.837
CACACC: 0.964
CAGGGA: 0.965
AGAUGA: 0.904
GUUCGA: 0.917
UCCAUC: 0.881
AUUGCG: 0.99
AGGUGG: 1.27
AUAGAC: 0.832
UUGGCU: 1
UGUGUA: 1.66
CGCAAC: 0.861
GCCAGA: 0.896
CCUCGC: 0.912
AAAUAU: 0.965

Set 3
Target: RNA binding protein fox-1 homolog 2, RRM domain, GST-SBP tag (RBFOX2, Homo sapiens, UniProt O43251-10, residues 100-194)
Technique: RNA Bind-n-Seq
Molecule type: RNA
Sample: in vitro
Concentration: 365 nM
Setting: natural RNA segment, single round, ends assumed
Relative to: no-protein control
Direction: higher = stronger binding
Quantity: RBNS enrichment (R)
Shared flanks, not repeated: GGGAGUUCUACAGUCCGACGAUC … UGGAAUUCUCGGGUGCCAA
Target sequence (chain): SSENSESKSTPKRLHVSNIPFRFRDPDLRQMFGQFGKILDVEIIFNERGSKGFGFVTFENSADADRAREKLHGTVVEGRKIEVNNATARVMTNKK
GGUGUCACCGUCUUAGCCCUUUGUUUUCCUUACUAGAGUAUCUUUCCCGCACCCCUAGGUUUGUAUUCUGGUUCUACUGGCUUUUCUCAGUGGGACACCAAGGUAGAAAG: 0.334
CGCGCAAGUCUGAGGGUCUGGGCGGCGGGCGGCUGGGUCUGUGCAUUUCUGGUUGCACCGCGGCGCUUCCCAGCACCAACAUGUAACCGGCAUGUUUCCAGCAGAAGACA: 0.379
GCCAAUUUCUCUCAGAUUUCCACAGAGACUGUUUGAAUGUUUUCAAAACCAAGUAUCACACUUUAAUGUACAUGGGCCGCACCAUAAUGAGAUGUGAGCCUUGUGCAUGU: 4.43
UCAUGAGAAUGUGGAUGUACAAGUGUAAAAACAGGAAUGUACUAUCUCUCCUGAGCAGAUUGCCUGAUGGGAUUGACAAGGAGGCUCAUUGGGUUGUGGUUUGAACAUCG: 0.822
AUGGUUUUCUUUACAUGAACAAAUGAACAAAAGAGAUCCUAGAUCCAUAACGUAGCUAAGGCAUCUAAGAGUUUGCUGUUGAUAAUCUUGCUGACCAAAAACUACUGGAG: 0.452
AAACUGAGAAGCCUGUGAGUUGAUGCCGGUUCUCAAGCCGCAGAGCCUGGCUCUCAGAAGCCACGUUAGCGUCUCUCUCUCCUGCUGAUCGCUCGACACAGCACCUUUUC: 12.7
GCCAUUGUCAUAGCACAGAGAUUUCAGAAGCACCUGCAGGUGGCUUGCUUGGGAUGUUGCUGUCCCUGGGUCAGCCUUCCAUUCUGCUUUCCUGUCUUCCCGUCUGCCUU: 0.388
GGAGAGGGGAGGUGGCUCUCCAGUGUAAAACUUGAGGCAUUCACUAGAGGUGAAAACUUGUCAGAAUAUAUAAAAGCUUAGAUUGUAGCUGUUCUAAAAACGUAAGUACU: 4.19
AGCUGAUAAAUAAGGGCUGAGGCAAGUGACUCCUUAGAUCAGCACUGACUGAACGAAAGCCAGGCAGCUGUUCUGUAAGCCUAGCCCUACCCUUCAUUUCAGUUUUAUAC: 0.229
GCCACGAGAGCAUCUACAGUUUGUACUCUGGGGCUGCAGGCAUCCUGGGACGCUGUACGCAAUUCAGUGGUCUAGUCCUUUAUACCGACUCAGAUUCCUUAAGCAUGCAG: 2.84
GCUGCUGUCAGCCCCUCCUGUAGGAGCUGGCCCUGCCCAGGCUCCUGACUUCCCUCAGGAAGUCUUUCUGUCUUUCUCCAUCAGUCUGAAAGCCUUAGUUCCCACAGAGG: 0.286
GGUGGACCCCCAUGAGUCAAUGGAGGGCAGACGGCUCUCCCCCUUAAAGCUGUUCCCUGGGGGAUGGCUUGGUAGUGGACUUUCUGGGGUUUGCCUGUUACGCCAGACUC: 0.27

Set 4
Target: Ras GTPase-activating protein-binding protein 1, full length (G3BP1, Homo sapiens, UniProt Q13283)
Sequence of UniProt Q13283 (whole entry, looked up): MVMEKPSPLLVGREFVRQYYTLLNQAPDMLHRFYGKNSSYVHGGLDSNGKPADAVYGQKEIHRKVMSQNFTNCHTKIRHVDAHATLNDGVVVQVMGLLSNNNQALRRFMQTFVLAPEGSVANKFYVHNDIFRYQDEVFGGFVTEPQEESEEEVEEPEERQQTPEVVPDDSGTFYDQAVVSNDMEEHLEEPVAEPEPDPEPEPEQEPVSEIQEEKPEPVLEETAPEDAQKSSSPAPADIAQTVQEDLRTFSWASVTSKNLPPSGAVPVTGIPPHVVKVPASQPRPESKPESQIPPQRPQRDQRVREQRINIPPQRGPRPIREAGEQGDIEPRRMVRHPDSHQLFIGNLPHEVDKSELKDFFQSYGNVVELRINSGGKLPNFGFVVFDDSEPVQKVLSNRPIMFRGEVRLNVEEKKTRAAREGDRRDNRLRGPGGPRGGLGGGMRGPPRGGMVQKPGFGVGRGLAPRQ
Technique: RNA Bind-n-Seq
Molecule type: RNA
Sample: in vitro
Concentration: 200 nM
Setting: whole 134-nt RNA, ends assumed
Added: 150 mM LiCl
Relative to: input library
Direction: higher = stronger binding
Quantity: log2 enrichment
Library: 7-deaza-guanosine replaces G
Shared flanks, not repeated: GGGAGUUCUACAGUCCGACGAUC … UGGAAUUCUCGGGUGUCAAGG
UUCCUCAAGUCCUGUGCUACACAUCGUAUGUACCGAAUCGUGUGUGUGUGUAAAGUAUUAUGUUACGCCGUUCGGAUCUGCACUUCCAGC: 0.534
GUCCUGUGCUACACAUCGUAUGUACCGAAUCGGGAGGGAAAAAAAGGGUUUUUUUGGGAAAGUAUUAUGUUACGCCGUUCGGAUCUGCAC: -0.57
CAAGUCCUGUGCUACACAUCGUAUGUACCGAAUCGGAAAAAGGAAAAAGGAAAGGAAAGUAUUAUGUUACGCCGUUCGGAUCUGCACUUC: -0.871
ACCAUGCAGGUGGGCAUCUUUGGGAAGUGGGGCAAGGGGGGGAAAGGGAGGGGGGUAACACUUUGGGAACAGGUGGUCCCAGGUCGUUUC: 0.181
AGUCCUGUGCUACACAUCGUAUGUACCGAAUCGGGGAAAAGGAAAAGGGAAAAGGGGAAAGUAUUAUGUUACGCCGUUCGGAUCUGCACU: -0.382
CCUCAAGUCCUGUGCUACACAUCGUAUGUACCGAAUCGGGCGGCGGGGCGGGGAAAGUAUUAUGUUACGCCGUUCGGAUCUGCACUUCCA: 0.00521
GUCCUGUGCUACACAUCGUAUGUACCGAAUCGGGAGGGAAAAAAAGGGAAAAAAAGGGAAAGUAUUAUGUUACGCCGUUCGGAUCUGCAC: 0.371
CAAGUCCUGUGCUACACAUCGUAUGUACCGAAUCGGGUUUGGGUGGGAAAAAGGGAAAGUAUUAUGUUACGCCGUUCGGAUCUGCACUUC: -0.00193
UUAAUAGAUUGAACUUCAAAAAAAAAUUCUUUCUUAAUUUCUGGAUUAAAAAGUAUGCCUGUGUCUUCUAGACCUUUACCAGAAGAUGAU: -1.46
ACCAUGCAGGUGGGCAUCUUUGGGAAGUGGGGCAAGGAGGGGAUAGGGAGGGGGGUAACACUUUGGGAACAGGUGGUCCCAGGUCGUUUC: 0.442
GUCCUGUGCUACACAUCGUAUGUACCGAAUCGGGGUGGGGUUUGGGGUUUUUUUGGGGAAAGUAUUAUGUUACGCCGUUCGGAUCUGCAC: -0.305

Set 5
Target: ABI1, truncated, D143A, DHFR fusion (Arabidopsis thaliana)
Technique: DHFR PCA, deep sequencing
Sample: yeast
Setting: methotrexate growth selection, single substitutions
Added: (+)-ABA 200 µM
Relative to: wild-type fitted maximum
Direction: higher = stronger binding
Quantity: relative binding score
Starting sequence: PYL1, truncated, DHFR fusion (Arabidopsis thaliana); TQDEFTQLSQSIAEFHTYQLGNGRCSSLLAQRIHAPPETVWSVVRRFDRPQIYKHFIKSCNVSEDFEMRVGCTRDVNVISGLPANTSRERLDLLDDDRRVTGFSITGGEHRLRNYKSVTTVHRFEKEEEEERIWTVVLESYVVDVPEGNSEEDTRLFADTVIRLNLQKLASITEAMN; partner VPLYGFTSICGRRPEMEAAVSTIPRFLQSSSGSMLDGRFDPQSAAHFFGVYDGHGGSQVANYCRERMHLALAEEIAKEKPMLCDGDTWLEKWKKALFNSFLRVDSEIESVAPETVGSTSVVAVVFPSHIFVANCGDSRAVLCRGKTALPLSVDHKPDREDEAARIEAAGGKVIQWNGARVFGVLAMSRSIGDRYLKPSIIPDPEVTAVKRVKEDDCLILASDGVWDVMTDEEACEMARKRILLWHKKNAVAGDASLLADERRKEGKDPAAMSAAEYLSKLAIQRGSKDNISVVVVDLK
G108F: 13.8%
A13K: 97%
T160M: 94%
V100M: 97.9%
L156Y: 90.1%
D75N: 106%
E151Y: 88.5%
E38L: 65.6%
V143S: 58.4%
T101Q: 53.5%
G81M: 31.2%
E130S: 106%
E67L: 93.3%
Q51W: 95.2%
F5M: 97.2%
T73P: 48.3%

Set 6
Target: CCNA1, cyclin fold, Cln2 fusion (human)
Technique: yeast growth competition, sequencing
Sample: yeast
Setting: weak parent motif
Relative to: not given
Direction: higher = stronger binding
Quantity: normalised enrichment score
Starting sequence: WEE1 docking peptide (human); HKTFRKLRLFDTP; partner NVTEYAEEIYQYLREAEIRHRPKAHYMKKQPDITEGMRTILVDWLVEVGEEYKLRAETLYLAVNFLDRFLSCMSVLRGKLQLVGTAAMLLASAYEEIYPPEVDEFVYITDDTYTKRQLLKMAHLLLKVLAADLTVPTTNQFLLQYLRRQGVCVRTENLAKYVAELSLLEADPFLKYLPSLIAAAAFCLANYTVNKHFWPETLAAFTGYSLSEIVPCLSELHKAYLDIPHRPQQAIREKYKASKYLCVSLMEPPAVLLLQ
R8A: 0.248
R8D: 0.218
D11V: 0.0023
R5S: 0.12
T12Y: -0.0142
R5D: 0.0879
T12M: 0.608
T3G: 0.367
P13K: 0.28
T3N: -0.256
K6F: -0.312
F4M: 0.57
L9G: 0.118
R5E: 0.889
K6A: 0.0982
L9I: 0.353
D11G: 0.136
H1C: 0.536
T12H: 0.527
P13W: 0.17
P13C: 0.382
T12K: 0.258
T3I: 0.0109
P13H: -0.146
K2L: 0.321

Some of these lines once more (set 5):
G108F: 13.8%
E151Y: 88.5%
T160M: 94%
E130S: 106%
V143S: 58.4%
V100M: 97.9%
E67L: 93.3%
D75N: 106%
T101Q: 53.5%
